Measured values pooled from the literature.
Compare with care: the assays were run in different laboratories. Several values in a cell are separate wells, animals, samples, runs or records. ± marks the error that the study gave.
Astl: Astacin-like metalloendopeptidase (Astl, Mus musculus, UniProt Q6HA09)
UniProt Q6HA09, sequence (whole entry, looked up): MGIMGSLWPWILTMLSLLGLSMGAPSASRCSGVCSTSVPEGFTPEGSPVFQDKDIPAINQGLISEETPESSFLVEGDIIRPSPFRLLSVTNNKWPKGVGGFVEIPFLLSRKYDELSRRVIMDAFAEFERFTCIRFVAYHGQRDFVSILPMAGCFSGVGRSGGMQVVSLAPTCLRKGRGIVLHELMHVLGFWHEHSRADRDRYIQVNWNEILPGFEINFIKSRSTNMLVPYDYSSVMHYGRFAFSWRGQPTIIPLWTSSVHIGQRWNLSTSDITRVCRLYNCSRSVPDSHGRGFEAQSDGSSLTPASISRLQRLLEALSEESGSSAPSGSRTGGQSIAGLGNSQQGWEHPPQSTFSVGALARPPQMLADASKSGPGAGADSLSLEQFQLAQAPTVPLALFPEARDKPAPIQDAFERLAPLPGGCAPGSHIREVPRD
XIAP BIR3: E3 ubiquitin-protein ligase XIAP, BIR3 (XIAP, Homo sapiens, UniProt P98170)
UniProt P98170, sequence (whole entry, looked up): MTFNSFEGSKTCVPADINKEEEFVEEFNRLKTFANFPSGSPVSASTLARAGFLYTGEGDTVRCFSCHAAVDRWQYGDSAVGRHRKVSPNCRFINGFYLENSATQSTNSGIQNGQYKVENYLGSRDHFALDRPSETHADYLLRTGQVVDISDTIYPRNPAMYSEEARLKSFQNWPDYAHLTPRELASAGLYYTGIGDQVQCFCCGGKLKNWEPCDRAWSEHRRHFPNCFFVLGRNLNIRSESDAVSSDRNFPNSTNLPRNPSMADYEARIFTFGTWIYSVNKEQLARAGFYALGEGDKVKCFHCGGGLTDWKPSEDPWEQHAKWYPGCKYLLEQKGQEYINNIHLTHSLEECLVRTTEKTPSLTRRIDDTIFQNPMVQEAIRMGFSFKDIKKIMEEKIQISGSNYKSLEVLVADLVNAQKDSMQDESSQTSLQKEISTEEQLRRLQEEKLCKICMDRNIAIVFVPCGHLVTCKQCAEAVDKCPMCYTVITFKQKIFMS
DHFR: Dihydrofolate reductase (DHFR, Homo sapiens, UniProt P00374)
UniProt P00374, sequence (whole entry, looked up): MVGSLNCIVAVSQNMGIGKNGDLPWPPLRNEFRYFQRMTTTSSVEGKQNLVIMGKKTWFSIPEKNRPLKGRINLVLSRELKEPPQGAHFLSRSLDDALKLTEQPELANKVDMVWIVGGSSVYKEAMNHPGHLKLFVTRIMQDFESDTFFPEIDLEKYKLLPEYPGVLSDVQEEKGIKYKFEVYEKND
GLAA: Glucoamylase (GLAA, Aspergillus niger, UniProt P69328)
UniProt P69328, sequence (whole entry, looked up): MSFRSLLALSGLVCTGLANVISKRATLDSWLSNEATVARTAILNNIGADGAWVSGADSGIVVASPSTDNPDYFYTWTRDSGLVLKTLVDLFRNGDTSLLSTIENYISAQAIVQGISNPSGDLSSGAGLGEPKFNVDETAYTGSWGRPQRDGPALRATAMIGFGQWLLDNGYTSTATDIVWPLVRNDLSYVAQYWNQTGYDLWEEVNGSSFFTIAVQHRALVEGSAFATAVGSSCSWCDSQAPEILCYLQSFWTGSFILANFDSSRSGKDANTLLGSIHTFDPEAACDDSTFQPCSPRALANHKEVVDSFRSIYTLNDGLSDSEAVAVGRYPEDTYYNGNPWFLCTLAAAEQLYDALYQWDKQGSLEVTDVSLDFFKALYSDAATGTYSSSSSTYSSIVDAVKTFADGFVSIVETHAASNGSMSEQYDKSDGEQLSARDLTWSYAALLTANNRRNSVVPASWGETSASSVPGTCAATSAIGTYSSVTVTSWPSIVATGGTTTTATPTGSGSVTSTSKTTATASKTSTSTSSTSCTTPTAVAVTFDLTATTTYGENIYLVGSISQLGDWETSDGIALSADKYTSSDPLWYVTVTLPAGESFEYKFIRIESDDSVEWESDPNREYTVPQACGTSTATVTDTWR
EPHA2: Ephrin type-A receptor 2 (EPHA2, Homo sapiens, UniProt P29317)
UniProt P29317, sequence (whole entry, looked up): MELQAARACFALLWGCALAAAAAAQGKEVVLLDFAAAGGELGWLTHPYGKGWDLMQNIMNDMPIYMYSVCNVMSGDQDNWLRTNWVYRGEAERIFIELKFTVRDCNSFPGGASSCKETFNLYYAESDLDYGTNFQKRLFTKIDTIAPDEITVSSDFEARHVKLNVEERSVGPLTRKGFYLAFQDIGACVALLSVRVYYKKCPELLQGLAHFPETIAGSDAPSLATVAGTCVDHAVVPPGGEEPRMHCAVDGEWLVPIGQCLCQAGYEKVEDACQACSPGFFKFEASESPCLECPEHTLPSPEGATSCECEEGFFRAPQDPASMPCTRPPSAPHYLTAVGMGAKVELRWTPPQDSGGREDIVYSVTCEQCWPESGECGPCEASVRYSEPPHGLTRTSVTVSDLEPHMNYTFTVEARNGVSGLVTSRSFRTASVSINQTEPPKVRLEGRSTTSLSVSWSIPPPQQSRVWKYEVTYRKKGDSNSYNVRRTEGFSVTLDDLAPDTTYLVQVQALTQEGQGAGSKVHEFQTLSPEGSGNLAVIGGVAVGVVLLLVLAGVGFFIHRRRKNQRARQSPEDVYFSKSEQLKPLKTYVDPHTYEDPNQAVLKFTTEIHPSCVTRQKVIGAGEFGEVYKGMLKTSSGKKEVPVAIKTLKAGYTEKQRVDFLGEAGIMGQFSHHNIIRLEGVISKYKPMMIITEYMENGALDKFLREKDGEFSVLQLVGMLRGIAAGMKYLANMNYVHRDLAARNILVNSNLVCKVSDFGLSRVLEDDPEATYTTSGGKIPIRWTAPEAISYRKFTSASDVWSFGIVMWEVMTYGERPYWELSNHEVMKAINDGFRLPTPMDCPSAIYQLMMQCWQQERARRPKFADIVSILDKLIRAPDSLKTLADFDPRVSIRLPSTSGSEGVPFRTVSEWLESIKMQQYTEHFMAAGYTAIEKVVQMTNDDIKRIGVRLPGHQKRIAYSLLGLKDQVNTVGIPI
CAPN1: Calpain-1 catalytic subunit (CAPN1, Homo sapiens, UniProt P07384)
UniProt P07384, sequence (whole entry, looked up): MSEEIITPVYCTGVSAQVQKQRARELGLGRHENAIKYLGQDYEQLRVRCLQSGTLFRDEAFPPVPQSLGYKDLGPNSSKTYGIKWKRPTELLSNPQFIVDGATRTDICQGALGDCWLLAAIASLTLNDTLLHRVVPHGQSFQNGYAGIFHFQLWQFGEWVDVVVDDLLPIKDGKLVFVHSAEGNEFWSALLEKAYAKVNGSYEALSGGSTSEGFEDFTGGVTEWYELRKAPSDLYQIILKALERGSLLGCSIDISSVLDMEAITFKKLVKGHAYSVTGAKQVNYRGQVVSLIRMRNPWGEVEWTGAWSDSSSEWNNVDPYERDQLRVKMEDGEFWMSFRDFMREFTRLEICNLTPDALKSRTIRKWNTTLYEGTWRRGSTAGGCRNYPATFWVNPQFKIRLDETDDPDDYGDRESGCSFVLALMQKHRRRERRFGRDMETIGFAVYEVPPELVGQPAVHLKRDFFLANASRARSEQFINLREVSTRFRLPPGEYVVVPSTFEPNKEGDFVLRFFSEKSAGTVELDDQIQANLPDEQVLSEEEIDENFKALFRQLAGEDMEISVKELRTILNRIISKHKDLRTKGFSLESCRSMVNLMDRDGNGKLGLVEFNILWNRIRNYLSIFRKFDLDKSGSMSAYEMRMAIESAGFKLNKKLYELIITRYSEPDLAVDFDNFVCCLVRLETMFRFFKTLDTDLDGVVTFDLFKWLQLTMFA
bglA: bglA (Thermotoga maritima, UniProt Q08638)
UniProt Q08638, sequence (whole entry, looked up): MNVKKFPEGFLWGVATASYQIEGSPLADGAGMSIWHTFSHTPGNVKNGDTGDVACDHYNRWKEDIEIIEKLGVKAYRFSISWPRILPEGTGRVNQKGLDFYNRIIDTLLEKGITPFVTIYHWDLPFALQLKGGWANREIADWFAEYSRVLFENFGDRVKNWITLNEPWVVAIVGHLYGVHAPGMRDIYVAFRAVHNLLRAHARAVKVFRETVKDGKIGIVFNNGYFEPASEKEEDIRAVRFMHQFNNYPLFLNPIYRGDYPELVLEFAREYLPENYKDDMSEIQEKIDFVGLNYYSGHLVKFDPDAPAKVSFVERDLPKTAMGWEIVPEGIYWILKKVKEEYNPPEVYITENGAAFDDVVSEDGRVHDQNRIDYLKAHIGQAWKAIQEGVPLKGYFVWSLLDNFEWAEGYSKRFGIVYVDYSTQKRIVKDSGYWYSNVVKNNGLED
Na(+)/H(+) exchange regulatory cofactor NHE-RF2 PDZ domain 2: Na(+)/H(+) exchange regulatory cofactor NHE-RF2, PDZ domain 2 (Homo sapiens, UniProt Q15599)
UniProt P21554, sequence (whole entry, looked up): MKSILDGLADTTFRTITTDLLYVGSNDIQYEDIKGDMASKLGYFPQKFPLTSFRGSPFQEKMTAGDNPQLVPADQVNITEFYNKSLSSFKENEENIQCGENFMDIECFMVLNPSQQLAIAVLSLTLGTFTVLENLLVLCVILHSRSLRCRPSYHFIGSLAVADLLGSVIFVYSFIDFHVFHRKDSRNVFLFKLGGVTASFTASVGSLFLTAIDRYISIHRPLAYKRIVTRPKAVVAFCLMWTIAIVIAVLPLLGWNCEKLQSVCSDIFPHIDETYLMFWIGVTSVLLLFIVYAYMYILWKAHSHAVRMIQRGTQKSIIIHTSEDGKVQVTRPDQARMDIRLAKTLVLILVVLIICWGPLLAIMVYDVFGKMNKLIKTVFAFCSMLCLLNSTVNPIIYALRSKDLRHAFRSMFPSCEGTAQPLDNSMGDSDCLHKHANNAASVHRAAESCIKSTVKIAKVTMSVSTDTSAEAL
UniProt P37268, sequence (whole entry, looked up): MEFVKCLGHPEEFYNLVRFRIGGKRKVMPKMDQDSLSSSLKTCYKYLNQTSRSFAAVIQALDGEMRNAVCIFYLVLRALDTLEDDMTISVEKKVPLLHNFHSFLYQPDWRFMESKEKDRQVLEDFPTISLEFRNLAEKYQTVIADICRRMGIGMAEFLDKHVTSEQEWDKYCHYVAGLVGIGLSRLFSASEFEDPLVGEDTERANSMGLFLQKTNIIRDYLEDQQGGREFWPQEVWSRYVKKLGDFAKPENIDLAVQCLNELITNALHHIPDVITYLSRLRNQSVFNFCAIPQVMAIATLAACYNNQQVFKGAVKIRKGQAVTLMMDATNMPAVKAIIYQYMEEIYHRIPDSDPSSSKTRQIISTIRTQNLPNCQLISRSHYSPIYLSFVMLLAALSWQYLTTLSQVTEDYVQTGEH
UniProt P40337, sequence (whole entry, looked up): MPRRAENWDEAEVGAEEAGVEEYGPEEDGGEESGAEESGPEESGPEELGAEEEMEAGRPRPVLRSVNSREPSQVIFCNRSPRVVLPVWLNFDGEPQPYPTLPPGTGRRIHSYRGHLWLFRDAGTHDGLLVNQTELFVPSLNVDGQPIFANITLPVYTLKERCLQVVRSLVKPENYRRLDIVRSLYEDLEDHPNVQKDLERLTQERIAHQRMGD

O=C(CN(Cc1ccc(Cl)c(O)c1F)Cc1ccc(Cl)c(O)c1F)NO — Ki (Astl; enzyme activity, inhibitor, fluorogenic; pH 7.4, 37 °C, apparent Ki, Morrison equation, added: 25 µM substrate): 0.81 ± 0.37 µM
CCN(CC)c1ccc(CNC(=O)[C@@H]2CC[C@@H]3CCN(C(=O)Cc4ccccc4)C[C@H](NC(=O)[C@H](C)NC)C(=O)N32)cc1 — Ki (XIAP BIR3; ligand displacement, FP): 42.5 µM
N=C(N)Nc1nc2ccc(Cl)cc2[nH]1 — Ki (DHFR; inhibitor): 2.77 µM
CC(=O)c1ccc(NC(=O)c2nc(-c3ccccc3)n(-c3ccc(C)cc3)n2)cc1 — Ki (CNR1 (Homo sapiens, UniProt P21554); cell-free assay): 0.495 µM and 0.496 µM
Cc1ccc(O)c(C(=O)Nc2ccc(CN)cc2)c1 — Ki (TMPRSS11D (Homo sapiens, UniProt O60235); enzyme activity, inhibitor, fluorescence): 1.4 µM
CN(C)CC#Cc1ccc(OCCCc2sc(N3CCc4cccc(C(=O)Nc5nc6ccccc6s5)c4C3)nc2C(=O)O)c(F)c1 — Ki (BCL2L1 (Homo sapiens, UniProt Q07817); cell-free assay, TR-FRET): < 1e-05 µM
Cc1ncsc1-c1ccc(CNC(=O)[C@@H]2C[C@@H](O)CN2C(=O)[C@@H](NC(=O)OC(C)(C)C)C(C)(C)C)cc1 — Ki (von Hippel-Lindau disease tumor suppressor, with elongin B/C (VHL, Homo sapiens, UniProt P40337)): 2.1 µM
CNc1ccccc1C(=O)O[C@H]1[C@@H](O)[C@H](n2cnc3c(N)ncnc32)O[C@@H]1COP(=O)(O)OP(=O)(O)O — Ki (ADCY1 (Bos taurus, UniProt P19754); adenylyl cyclase activity, inhibitor; Sf9 membranes; added: 5 mM MnCl2, 100 µM forskolin): 1.3 ± 0.2 µM
CCC[C@@H]1[C@H](O)[C@@H](O)[C@H](O)[C@@H](CO)N1C(=S)NCc1ccccc1 — Ki (GLAA; enzyme activity, inhibitor): 154 µM
N=C(N)NCCCC(=O)NCC1(Nc2ccccc2)CCN(Cc2ccccc2)CC1 — Ki (Neuropeptide FF receptor 2 (Homo sapiens, UniProt Q9Y5X5); cell-free assay): 2.68 µM
CNC(=O)C1CCN(c2ccccc2NC(=O)c2ccc(-c3c(C)ccc4[nH]ncc34)c(C)c2)CC1 — Ki (EPHA2; enzyme activity, inhibitor): 0.0007 µM
CCC(NC(=O)C(CC(C)C)NC(=O)NCc1ccccc1)C(=O)C(=O)NCc1cc(F)cc(OC)c1 (stereo not shown) — Ki (CAPN1; enzyme activity, inhibitor, fluorescence): 0.072 µM
CC(C)(Sc1nc2ncccc2n1Cc1ccc(Br)c2ccccc12)C(=O)O — Ki (SLC22A12 (Homo sapiens, UniProt Q96S37); transporter uptake, inhibitor, radiometric): 0.079 µM
CCCCN1[C@H](CCC)[C@H](O)[C@@H](O)[C@H](O)[C@H]1CO — Ki (GLAA; enzyme activity, competitive inhibitor; optimal pH, added: p-nitrophenyl glycopyranoside): > 2000 µM
CCC(NC(=O)C(CC(C)C)NC(=O)CCc1ccc(C#N)cc1)C(=O)C(=O)NCc1cc(OC)cc(OC)c1 (stereo not shown) — Ki (CAPN1; enzyme activity, inhibitor, fluorescence): 0.146 µM
CN(C)CCN(Cc1ccncc1)Cc1c(Cl)cccc1Cl — Ki (SLC6A4 (Homo sapiens, UniProt P31645); ligand displacement, radioligand; cell membranes): 0.668 µM
CCCCCCCCN=C1SC[C@@H]2[C@@H](O)[C@H](O)[C@@H](O)[C@@H](CCCCCCCC)N12 — Ki (bglA; competitive inhibitor; added: p-nitrophenyl glucopyranoside): > 2000 µM
CNC(=O)C1CCN(C(=O)CCC(=O)N(CC(C)(C)C)c2ccc(Cl)cc2C(O)c2ccccc2Cl)CC1 (stereo not shown) — Ki (Squalene synthase (Homo sapiens, UniProt P37268); binding, fluorescence polarization competition; active site tracer): 0.7 µM
CC[C@H](C)[C@H](NC(=O)[C@H](CCCCN)NC(=O)[C@H](CO)NC(=O)[C@@H](NC(=O)[C@H](CCC(N)=O)NC(=O)[C@H](CCSC)NC(=O)[C@@H](N)CS)[C@@H](C)O)C(=O)O — Ki (Na(+)/H(+) exchange regulatory cofactor NHE-RF2 PDZ domain 2; binding to PDZ2 domain, inhibitor, fluorescence polarization): 109 ± 10 µM
Cc1cc2nc3n(c2cc1C)C(C)(C)NC(N)=N3 — Ki (DHFR; inhibitor): 1.05 µM
O=C(CCN(Cc1cccnc1)Cc1cccnc1)NO — Ki (Astl; enzyme activity, inhibitor, fluorogenic; pH 7.4, 37 °C, apparent Ki, Morrison equation, added: 25 µM substrate): 28.3 ± 1.1 µM
O=C(O)c1ccc2[nH]c(-c3ccc(OCC(O)COc4ccc(-c5nc6cc(C(=O)O)ccc6[nH]5)cc4)cc3)nc2c1 — Ki (Beta-lactamase (Escherichia coli, UniProt Q8VNN1); inhibitor): 3.5 ± 1.1 µM
CCCCCCCCNC(=S)N1[C@H](CCCCCCCC)[C@H](O)[C@@H](O)[C@H](O)[C@H]1CO — Ki (GLAA; enzyme activity, inhibitor): 455 µM
COc1cccc(C(=O)CC(N)C(=O)O)c1 (stereo not shown) — Ki (Kynureninase (Rattus norvegicus, UniProt P70712); inhibitor): 175 µM
CCCCCCCC/N=C1/SC[C@@H]2[C@@H](O)[C@H](O)[C@@H](O)[C@@H](CCC)N12 — Ki (GLAA; enzyme activity, competitive inhibitor; optimal pH, added: p-nitrophenyl glycopyranoside): > 2000 µM
CNC(=O)C1CCN(c2cc(C)c(F)cc2NC(=O)c2ccc(-c3cc(O)ccc3C)c(C)c2)CC1 — Ki (EPHA2; cell-free assay, TR-FRET): 0.004 µM
NCCCCCO[C@H]1O[C@H](COS(=O)(=O)O)[C@@H](O[C@@H]2O[C@@H](C(=O)O)[C@@H](O[C@H]3O[C@H](COS(=O)(=O)O)[C@@H](O[C@@H]4O[C@@H](C(=O)O)[C@@H](O[C@H]5O[C@H](COS(=O)(=O)O)[C@@H](O[C@@H]6O[C@@H](C(=O)O)[C@@H](O[C@H]7O[C@H](COS(=O)(=O)O)[C@@H](O[C@@H]8O[C@@H](C(=O)O)[C@@H](O)[C@H](O)[C@H]8OS(=O)(=O)O)[C@H](O)[C@H]7NS(=O)(=O)O)[C@H](O)[C@H]6OS(=O)(=O)O)[C@H](O)[C@H]5NS(=O)(=O)O)[C@H](O)[C@H]4OS(=O)(=O)O)[C@H](O)[C@H]3NS(=O)(=O)O)[C@H](O)[C@H]2OS(=O)(=O)O)[C@H](O)[C@H]1NS(=O)(=O)O — Ki (Heparanase (HPSE, Homo sapiens, UniProt Q9Y251); enzyme activity, inhibitor, absorbance): 4.4 µM
CCC(NC(=O)C(CC(C)C)NC(=O)NCc1ccccc1)C(=O)C(=O)NCc1cccc(OC)c1 (stereo not shown) — Ki (CAPN1; enzyme activity, inhibitor, fluorescence): 0.077 µM
CC(Oc1cc(-c2ccccc2)nc2ncccc12)C(=O)N(C)c1ccccc1 (stereo not shown) — Ki (Tspo (Rattus norvegicus, UniProt P16257); binding, radioligand displacement; rat brain homogenate): 0.00029 ± 3e-05 µM
CNC(=O)C1CCN(c2ccccc2NC(=O)c2ccc(-c3ccncc3)c(C)c2)CC1 — Ki (EPHA2): > 0.25 µM
CC[C@H](C)[C@H](NC(=O)[C@@H](NC(=O)[C@H](CO)NC(=O)[C@@H](NC(=O)[C@@H]1CCCN1C(=O)[C@H](Cc1c[nH]c2ccccc12)NC(=O)[C@@H](N)CS)[C@@H](C)O)[C@@H](C)CC)C(=O)O — Ki (Na(+)/H(+) exchange regulatory cofactor NHE-RF2 PDZ domain 2; binding to PDZ2 domain, inhibitor, fluorescence polarization): > 5000 µM
CCCCCCCC[C@@H]1[C@H](O)[C@@H](O)[C@H](O)[C@@H](CO)N1C(=S)NCCCC — Ki (bglA; competitive inhibitor; added: p-nitrophenyl glucopyranoside): 293 ± 25 µM
O=C(CCN(Cc1ccc(Cl)cc1F)Cc1ccc(Cl)cc1F)NO — Ki (Astl; enzyme activity, inhibitor, fluorogenic; pH 7.4, 37 °C, apparent Ki, Morrison equation, added: 25 µM substrate): 2.13 ± 0.21 µM
COc1ccc(CNCCN2C(=O)c3cccc4cccc(c34)C2=O)cc1 — Ki (Chitooligosaccharidolytic beta-N-acetylglucosaminidase (Ostrinia furnacalis, UniProt Q06GJ0); inhibitor; pH 6.0, 25 °C, added: pNP-β-GlcNAc): > 100 µM
CN(CCNc1ncc(C#N)cc1Cl)Cc1ccc(F)cc1 — Ki (DRD2 (Homo sapiens, UniProt P14416); ligand displacement, radioligand): 8.61 µM
CCOC(=O)C1CCN(C(=O)Cn2cnc3sc4c(c3c2=O)CCCC4)CC1 — Ki (CFTR (Homo sapiens, UniProt P13569); concentration not given): ~5 µM
CCCCCCCC[C@@H]1[C@H](O)[C@@H](O)[C@H](O)[C@H]2CS/C(=N/CCCC)N12 — Ki (bglA; competitive inhibitor; added: p-nitrophenyl glucopyranoside): > 2000 µM
CCC(NC(=O)C(CC(C)C)NC(=O)CCc1ccccc1)C(=O)C(=O)NCc1cccc(OC)c1 (stereo not shown) — Ki (CAPN1; enzyme activity, inhibitor, fluorescence): 0.152 µM
CNC(=O)c1cc(C)ccc1NC(=O)c1ccc(-c2c(C)ccc3[nH]ncc23)c(C)c1 — Ki (EPHA2; enzyme activity, inhibitor): 0.0141 µM
CN[C@@H](C)C(=O)N[C@H]1CN(C(=O)Cc2ccccc2)CC[C@H]2CC[C@@H](C(=O)NCc3ccc(Cl)cc3)N2C1=O — Ki (XIAP BIR3; ligand displacement, FP): 0.87 µM

For quick reference, copied from above:
CCC(NC(=O)C(CC(C)C)NC(=O)NCc1ccccc1)C(=O)C(=O)NCc1cc(F)cc(OC)c1 (stereo not shown) — Ki (CAPN1; enzyme activity, inhibitor, fluorescence): 0.072 µM
CNC(=O)C1CCN(c2ccccc2NC(=O)c2ccc(-c3c(C)ccc4[nH]ncc34)c(C)c2)CC1 — Ki (EPHA2; enzyme activity, inhibitor): 0.0007 µM
CCCCN1[C@H](CCC)[C@H](O)[C@@H](O)[C@H](O)[C@H]1CO — Ki (GLAA; enzyme activity, competitive inhibitor; optimal pH, added: p-nitrophenyl glycopyranoside): > 2000 µM
N=C(N)Nc1nc2ccc(Cl)cc2[nH]1 — Ki (DHFR; inhibitor): 2.77 µM
CN[C@@H](C)C(=O)N[C@H]1CN(C(=O)Cc2ccccc2)CC[C@H]2CC[C@@H](C(=O)NCc3ccc(Cl)cc3)N2C1=O — Ki (XIAP BIR3; ligand displacement, FP): 0.87 µM
CCC(NC(=O)C(CC(C)C)NC(=O)CCc1ccc(C#N)cc1)C(=O)C(=O)NCc1cc(OC)cc(OC)c1 (stereo not shown) — Ki (CAPN1; enzyme activity, inhibitor, fluorescence): 0.146 µM
